Experimental data from different studies.
Lines come from different studies, so protocols differ. ± marks the error that the study gave.
CASP7: Caspase-7 (CASP7, Homo sapiens, UniProt P55210)
Alpha-galactosidase: Alpha-galactosidase (Coffea arabica, UniProt Q42656)
BIRC3 BIR3: Baculoviral IAP repeat-containing protein 3, BIR3 (BIRC3, Homo sapiens, UniProt Q13489)
CA5A: Carbonic anhydrase 5A, mitochondrial (CA5A, Homo sapiens, UniProt P35218)
Beta-lactamase CTX-M-27: Beta-lactamase CTX-M-27 (Escherichia coli, UniProt Q840M4)
NOS3: Nitric oxide synthase 3 (NOS3, Bos taurus, UniProt P29473)

Compound	target	assay	setting	Ki [µM]
CC(=O)NCC(=O)N[C@@H](CCC(=O)O)C(=O)N[C@@H](CO)C(=O)N1CCC[C@H]1C(=O)N[C@H](C=O)CC(=O)O	CASP7	enzyme activity, inhibitor, fluorescence	pH 7	1.91
CC(=O)N[C@@H](CCCNC(=N)N)C(=O)N[C@@H](CCCCN)C(=O)N[C@@H](CCCCN)C(=O)N[C@@H](Cc1ccc(O)cc1)C(=O)N[C@@H](CCCCN)C(=O)N[C@@H](Cc1ccccc1)C(=O)N[C@@H](CC(N)=O)C(=O)N[C@@H](CCC(=O)O)C(=O)N[C@@H](CC(=O)O)C(=O)N[C@H](C(=O)N[C@@H](CCC(=O)O)C(=O)N[C@@H](CCCNC(=N)N)C(=O)N[C@@H](CCCNC(=N)N)C(=O)N[C@@H](CCCNC(=N)N)C(=O)N[C@@H](Cc1ccccc1)C(=O)N[C@@H](CC(C)C)C(N)=O)[C@@H](C)O	Eukaryotic elongation factor 2 kinase (EEF2K, Homo sapiens, UniProt O00418)	enzyme activity, inhibitor, radiometric		178
CCCCCCCCNC(=S)N1[C@H](CCC)[C@H](O)[C@@H](O)[C@H](O)[C@H]1CO	Alpha-galactosidase	enzyme activity, competitive inhibitor	green coffee bean enzyme, optimal pH, together with: p-nitrophenyl glycopyranoside	> 2000
CN[C@@H](C)C(=O)N[C@H]1CN(C(=O)Cc2ccccc2)CC[C@H]2CC[C@@H](C(=O)NCc3cccc(Cl)c3)N2C1=O	BIRC3 BIR3	ligand displacement, FP		0.0397
COC(=O)C(CS)N1C(=O)c2cccc3c(N(C)C)ccc(c23)C1=O (stereo not drawn)	Metallo-beta-lactamase VIM-2 (VIM-2, Escherichia coli, UniProt Q5U7L7)	enzyme activity, inhibitor	Km 8 µM, together with: chromacef 25 µM	0.1 ± 0.02
CC(=O)N[C@@H](Cc1c[nH]c2ccccc12)C(=O)N[C@@H](CC(=O)O)C(=O)N[C@@H](CCCNC(=N)N)C(=O)N[C@@H](C)C(=O)N[C@H](C=O)CC(=O)O	CASP7	enzyme activity, inhibitor, fluorescence	pH 7	0.148
COCCOc1cc2ncnc(Nc3cccc(-c4cn(Cc5ccc(C(=O)NCCc6ccc(S(N)(=O)=O)cc6)cc5)nn4)c3)c2cc1OCCOC	CA5A	enzyme activity, inhibitor, stopped-flow		0.0062
O[C@@H]1[C@H](O)[C@@H](CNC(=S)Nc2ccccc2)N2CCC[C@@H](O)[C@H]12	Alpha-mannosidase 2 (Homo sapiens, UniProt Q16706)	inhibitor, fluorogenic	together with: 4-methylumbelliferyl α-mannoside	0.2
CN[C@@H](C)C(=O)N[C@H]1CN(C(=O)Cc2ccccc2)CC[C@H]2CC[C@@H](C(=O)NCc3ccc(OC)cc3)N2C1=O	Baculoviral IAP repeat-containing protein 2, BIR3 (BIRC2, Homo sapiens, UniProt Q13490)	ligand displacement, FP		0.018
O=C(Nc1cccc(-c2nn[nH]n2)c1)c1cc(-c2ccsc2)cc(C(F)(F)F)c1	Beta-lactamase CTX-M-27	enzyme activity, inhibitor, absorbance	pH 7	5.21
COCCOc1cc2ncnc(Nc3cccc(-c4cn([C@H]5C[C@H](n6cc(C)c(=O)[nH]c6=O)O[C@@H]5CO)nn4)c3)c2cc1OCCOC	Carbonic anhydrase 6 (CA6, Homo sapiens, UniProt P23280)	enzyme activity, inhibitor, stopped-flow		0.103
CN[C@@H](C)C(=O)N[C@H]1CN(C(=O)Cc2ccccc2)CC[C@H]2CC[C@@H](C(=O)NCc3ccccc3Cl)N2C1=O	BIRC3 BIR3	ligand displacement, FP		0.0609
COCCOc1cc2ncnc(Nc3cccc(-c4cn(Cc5ccc(S(N)(=O)=O)cc5)nn4)c3)c2cc1OCCOC	CA5A	enzyme activity, inhibitor, stopped-flow		0.013
O=C(Nc1cccc(-c2nn[nH]n2)c1)c1cc(-c2cc[nH]c2)cc(C(F)(F)F)c1	Beta-lactamase CTX-M-27	enzyme activity, inhibitor, absorbance	pH 7	2.07
O=C(/C=C/c1ccc(O)c(O)c1)N[C@@H](Cc1ccccc1)C(=O)NCCCOc1c(-c2ccc(O)c(O)c2)oc2cc(O)cc(O)c2c1=O	Pancreatic alpha-amylase (Homo sapiens, UniProt P04746)	inhibitor	pH 7	2.8 ± 0.4
CCCCCCCC[C@@H]1[C@H](O)[C@@H](O)[C@H](O)[C@H]2CS/C(=N/CCCC)N12	Alpha-galactosidase	enzyme activity, competitive inhibitor	green coffee bean enzyme, optimal pH, together with: p-nitrophenyl glycopyranoside	> 2000
O=C(Nc1cccc(-c2nn[nH]n2)c1)c1cc(-c2ccccn2)cc(C(F)(F)F)c1	Beta-lactamase CTX-M-27	enzyme activity, inhibitor, absorbance	pH 7	3.92
CCCCCCCCNC(=S)N1[C@H](CCCCCCCC)[C@H](O)[C@@H](O)[C@H](O)[C@H]1CO	Alpha-galactosidase	enzyme activity, competitive inhibitor	green coffee bean enzyme, optimal pH, together with: p-nitrophenyl glycopyranoside	> 2000
C=C1C(=O)O[C@@H]2[C@H]3C(CO)=CC(=O)C3=C(C)C[C@H](OC(=O)Cc3ccc(O)cc3)[C@@H]12	Alpha-glucosidase MAL12 (MAL12, Saccharomyces cerevisiae S288c, UniProt P53341)	enzyme activity, inhibitor		27.8
Cc1cc(N)nc(C[C@H]2CNC[C@H]2OCCCCCc2cccc(F)c2)c1	NOS3	enzyme activity, inhibitor	pH 7.4	34
CN[C@@H](C)C(=O)N[C@H]1CN(C(=O)Cc2ccccc2)CC[C@H]2CC[C@@H](C(=O)NCc3ccc(C(F)(F)F)cc3)N2C1=O	BIRC3 BIR3	ligand displacement, FP		0.0246
CNC(=O)C1CCN(c2cc(C)c(F)cc2NC(=O)c2ccc(-c3cc(O)ccc3C)c(C)c2)CC1	Ephrin type-A receptor 5 (EPHA5, Homo sapiens, UniProt P54756)	cell-free assay, TR-FRET		0.001
Cc1cc(N)nc(CC2CNCC2OCCNCC(F)(F)C2CCCCN2)c1 (stereo not drawn)	NOS3	enzyme activity, inhibitor, hemoglobin capture		64
CN[C@@H](C)C(=O)N[C@H]1CN(C(=O)Cc2ccccc2)CC[C@H]2CC[C@@H](C(=O)NCc3cccc(C(F)(F)F)c3)N2C1=O	BIRC3 BIR3	ligand displacement, FP		0.0895
O=C(O)c1ccc2nc(-c3ccc(OCCCCOc4ccc(-c5nc6ccc(C(=O)O)cc6[nH]5)cc4)cc3)[nH]c2c1	Dihydrofolate reductase type 2 (Escherichia coli, UniProt P00383)	enzyme activity, inhibitor	pH 7	1.9 ± 0.3
CN[C@@H](C)C(=O)N[C@H]1CN(C(=O)Cc2ccccc2)CC[C@H]2CC[C@@H](C(=O)NCc3ccc(C(C)(C)C)cc3)N2C1=O	BIRC3 BIR3	ligand displacement, FP		0.33
Oc1cc(O)c2c(c1)O[C@H](c1ccc(O)c(O)c1)[C@@H](O)[C@@H]2c1c(O)cc(O)c2c1O[C@H](c1ccc(O)c(O)c1)[C@H](O)C2	PPO3 (Agaricus bisporus, UniProt C7FF04)	enzyme activity, inhibitor, absorbance		30.5

Excerpt of the above:
Compound	target	assay	setting	Ki [µM]
COC(=O)C(CS)N1C(=O)c2cccc3c(N(C)C)ccc(c23)C1=O (stereo not drawn)	Metallo-beta-lactamase VIM-2 (VIM-2, Escherichia coli, UniProt Q5U7L7)	enzyme activity, inhibitor	Km 8 µM, together with: chromacef 25 µM	0.1 ± 0.02
CN[C@@H](C)C(=O)N[C@H]1CN(C(=O)Cc2ccccc2)CC[C@H]2CC[C@@H](C(=O)NCc3ccc(C(C)(C)C)cc3)N2C1=O	BIRC3 BIR3	ligand displacement, FP		0.33
O=C(Nc1cccc(-c2nn[nH]n2)c1)c1cc(-c2ccccn2)cc(C(F)(F)F)c1	Beta-lactamase CTX-M-27	enzyme activity, inhibitor, absorbance	pH 7	3.92
O=C(Nc1cccc(-c2nn[nH]n2)c1)c1cc(-c2ccsc2)cc(C(F)(F)F)c1	Beta-lactamase CTX-M-27	enzyme activity, inhibitor, absorbance	pH 7	5.21
